Measured values pooled from the literature.
Each line is one published result; not all experiments were run side by side.
Cell line: MDA-MB-468

| SMILES | effect on | technique | time | notes | IC50 [µM] |
| --- | --- | --- | --- | --- | --- |
| Cc1cnc(Nc2ccc3c(c2)CCN(C(=O)/C=C/C(=O)c2ccc(Cl)cc2)C3)nc1-c1cnn(C(C)C)c1 | cell growth or viability | MTT | 48 h |  | 0.48 |
| Nc1ncnc2c1nc(Sc1cc(Cl)cc(Cl)c1)n2CCCNCC(F)(F)F | cell growth or viability | resazurin | 72 h |  | > 10 |
| Nc1ncc(-c2cc(-c3cnn(CC(F)(F)F)c3)ncc2F)nc1C(=O)NC1CNCC(F)C1 (stereo not drawn) | cell growth or viability | ATP luminescence | 72 h |  | 1.05 |
| CC(C)NCCCn1c(Sc2ccc(Cl)cc2I)nc2c(N)ncnc21 | cell growth or viability | resazurin | 72 h |  | 6.5 |
| CNS(=O)(=O)Nc1nccc(Cc2c(C)c3ccc(Oc4ncccc4F)cc3oc2=O)c1F | cell viability |  | 7 days |  | 0.638 |
| CC(C)NCCCn1c(Sc2cc(Cl)cc(Cl)c2)nc2c(N)nc(Cl)nc21 | cell growth or viability | resazurin | 72 h |  | 0.16 |
| CC(C)=CC1OC(C)(C)C2C=C3C(=O)C(Cl)=CC(O)C3C3C(O)C4OC4C(=O)C132 (stereo not drawn) | cell growth or viability | MTS |  |  | 5.88 |
| O=C(c1ccccc1Cl)N1CCN(CC(OCc2ccc3ccccc3c2)c2ccc(Cl)cc2Cl)CC1 (stereo not drawn) | cell growth or viability | MTT | 24 h |  | 46.9 |
| CC(C)(C)CNCCCn1c(Sc2cc(Cl)cc(Cl)c2)nc2c(N)nc(F)nc21 | cell growth or viability | resazurin | 72 h |  | 0.16 |
| O=C(c1cccnc1)N1CCN(CC(OCc2ccc3ccccc3c2)c2ccc(Cl)cc2Cl)CC1 (stereo not drawn) | cell growth or viability | MTT | 24 h |  | 38.1 |
| CC(C)NCCCn1c(Sc2ccc(Cl)cc2Cl)nc2c(N)ncnc21 | cell growth or viability | resazurin | 72 h |  | > 10 |
| CC(C)(C)OC(=O)N1CCN(CC(OCc2ccc(Cl)cc2)c2ccc(Cl)cc2Cl)CC1 (stereo not drawn) | cell growth or viability | MTT | 24 h |  | 22 |
| Cc1ccnc(-c2cc(C(=O)O)ccn2)c1.F[P-](F)(F)(F)(F)F.F[P-](F)(F)(F)(F)F.[Ru+2].c1ccc(-c2ccccn2)nc1.c1ccc(-c2ccccn2)nc1 | cell viability |  | 48 h | light irradiation 2.5 min | > 100 |
| Clc1ccc(C(Cn2ccnc2)OCc2ccc3ccccc3c2)c(Cl)c1 (stereo not drawn) | cell growth or viability | MTT | 24 h |  | 37.6 |
| C1=[N+]2CCCC[N+]3=Cc4ccc5[n]4[Au-]23[n]2c1ccc2-c1nc2ccccc2nc1-5.F[P-](F)(F)(F)(F)F |  |  |  | NCI60 five-dose screen | 2.6 |
